Assay results gathered from unrelated publications.
Values joined by “and” are separate records of one study, mostly repeats; a detail may differ. ± gives the spread as reported.

With `CCOc1c([C@H](C)n2nc(C)c3c(N)ncnc32)cc(Cl)c(F)c1[C@@H]1CNC(=O)C1` the ECG observations was 0% (measured: QTcF above 500 ms; previously treated B-cell malignancy; oral, 5 mg once daily, baseline QTcF ≤450 ms).
For `CC(C)n1c(C2CCNCC2)nc2c([N+](=O)[O-])c(Br)c(Br)cc21`, “amount excreted in urine” read 0.97 mg (human, urine; oral, 50 mg, 0-24 h, median, single dose).
`CNC(=O)c1ccc(-c2cnc3ncc(Cc4ccc5ncccc5c4)n3n2)cc1F` — result for “patients with adverse event”: 8% (measured: Headache, all grades; cancer patients; oral, dose not given, dose escalation, any causality).
With `COc1nnc2ccc(N3CCC(c4ccc(OCCN5CCN(C)C(=O)[C@H]5C)cc4)CC3)nn12` the AUC(0-t) was 0.651 µM·h (patients, plasma; oral, 30 mg once daily, multiple dose, monotherapy).
Under “systemic vascular resistance change”, `Cc1c(-c2ccc(N3CCc4cccc(C(=O)Nc5nc6ccccc6s5)c4C3)nc2C(=O)O)cnn1CC12CC3(C)CC(C)(C1)CC(OCCNCC[C@H](O)CO)(C3)C2` is recorded as 2% (anaesthetised male beagle dogs; intravenous infusion, 0.3 mg/kg/min, 30 min; baseline: vehicle).
For `Cc1ccc([C@@H]2O[C@H](CO)[C@@H](O)[C@H](O)[C@H]2O)cc1Cc1ccc(-c2ccc(F)cc2)s1`, “urinary potassium excretion change” read -2.24 mEq (Japanese type 2 diabetes patients; 25 mg, day 4, 24 h urine collection; baseline: baseline).
The Tmax of `COc1nc(-c2cc(C)c(N[C@@H](C)c3cc(F)cc(F)c3)nn2)ccc1-n1cnc(C)c1` is reported as 4 h (cynomolgus monkey, male, plasma; oral, 2 mg/kg).
With `CCN1/C(=C/C(C)=O)Sc2ccc(F)cc21` the QRS duration was 35 ± 2 ms (cynomolgus monkey; oral, 30 mg/kg, 2 h post-dose).
Under “blood TBIL change”, `CCc1cc(C(=O)NC)c2nccc(N3CCc4c(cc(Cn5ccnc5)cc4-c4cn(C)nc4C(F)(F)F)C3=O)c2c1` is recorded as -15.6% (Sprague Dawley rats; oral, 100 mg/kg twice daily, 7 days; baseline: vehicle).
With `OCC1=C[C@@H](O)[C@@H]2C=CO[C@@H](O[C@@H]3O[C@H](CO)[C@@H](O)[C@H](O)[C@H]3O)[C@H]12` the accuracy was 89.2% (post-procedure stability; rat plasma; 1000 ng/mL, 3 h, room temperature).
For `CC(=O)O[C@H]1C(=O)[C@@]2(C)[C@H]([C@H](OC(=O)c3ccccc3)[C@]3(O)C[C@H](OC(=O)[C@H](O)[C@@H](NC(=O)c4ccccc4)c4ccccc4)C(C)=C1C3(C)C)[C@]1(OC(C)=O)CO[C@@H]1C[C@@H]2O`, “adverse event incidence” read 0% (measured: Pruritus; patients with advanced solid tumours; intravenous, dose not given, grade 3 and 4, possibly related to drug).
`NC1(C(=O)N[C@@H](CCO)c2ccc(Cl)cc2)CCN(c2nc[nH]c3nccc2-3)CC1` — result for “incidence of Fatigue”: 0% (metastatic CRPC patients; 320 mg b.i.d., any grade, treatment-related, together with: enzalutamide 160 mg daily).
With `O=C(c1cccnc1-c1ccncc1)N1CCC(O)(Cc2ccccc2)CC1` the Cmax/dose was 8.46 ng/mL/mg (healthy Japanese adults, plasma; oral, 1200 mg single dose).
`N#Cc1ccc2c(c1)[C@H]1CCCN(C(=O)c3ccc4[nH]cnc4c3)[C@H]1C2` — result for “minimum ACTH level”: 1.7 pmol/L (human; 360 mg, end of trial).
`COc1cccc(-c2n[nH]c(SCc3ccccn3)n2)c1OC` has a plasma concentration of 143 ng/mL (Sprague-Dawley rats, both sexes; oral dietary, 10 mg/kg/day, day 7, 1 h).
For `C[C@@H](N)C1CCN(S(=O)(=O)c2cccc3cnccc23)CC1`, “participants with epistaxis” read 0% (healthy volunteers; 150 mg, fasted).
`Cc1cc([C@H]2C[C@H]3[C@@H](C)SC(N)=N[C@@]3(c3ccc(F)cc3F)CO2)on1` gave a brain concentration of 139 nM (male 129/SVE mouse, brain; subcutaneous, 50 mg/kg, 18 h).
For `C[C@H](N[C@@H](CCc1ccccc1)C(=O)O)C(=O)N1[C@H](C(=O)O)C[C@H]2CCCC[C@@H]21`, the autosampler stability was 93.2 ± 14% (processed human plasma; 1000 pg/mL, 48 h, 4 °C; baseline: nominal).
With `C[C@@](Cc1ccc(O)c(O)c1)(NN)C(=O)O` the AUC(0-t) was 171 ng·h/mL (female Parkinson's disease patients, plasma; oral, dose not given, 3 h, median).
Under “Irwin test score”, `O=C1NCCc2nc(OCc3cccc(F)c3)ccc21` is recorded as 0 (measured: Miosis; Sprague-Dawley rat male; oral, 100 mg/kg, 4 h; direction not given).
For `CN1CCN(c2cccc3c2CCN(C(=O)/C=C/c2c(-n4cnnn4)ccc(Cl)c2F)[C@@H]3C(=O)Nc2ccc(C(=O)O)cc2)C(=O)C1`, “subjects with any adverse event” read 12.5% (healthy human subjects; intravenous infusion, 20 mg/h, 5 days).
With `C=C[C@@](C)(/C=C/c1ccc(O)cc1)CCC=C(C)C` the accuracy was 115% (post-procedure stability; rat plasma; 8 ng/mL, 3 h, room temperature).
`O=C(COc1ccc(Cl)cc1)NC12CC(c3nnc([C@H]4C[C@@H](OC(F)(F)F)C4)o3)(C1)C2`: “treatment-emergent adverse events” 5.6% (measured: Headache; healthy humans, both sexes; oral, dose not given, single ascending dose, fasted; baseline: subjects).
`Cc1ccc(Sc2ccccc2N2CCNCC2)c(C)c1` has an abdominal distension of 0% (healthy adult men; oral, 2.5 mg single).
For `CC[C@H](C)[C@H](NC(=O)CN)C(=O)N[C@@H](C)C(=O)N[C@@H](CCCCN)C(=O)N[C@@H](C)C(=O)N[C@H](C(=O)N[C@@H](CCCCN)C(=O)N[C@@H](CCCCN)C(=O)N[C@H](C(=O)N[C@@H](C)C(=O)N[C@@H](CCCCN)C(=O)N[C@@H](C)C(=O)N[C@@H](CC(C)C)C(=O)NCC(N)=O)[C@@H](C)CC)[C@@H](C)CC`, the helix content was 18% (circular dichroism; 10 mM SDS; 100 µM).
With `CNc1ccc(-c2nc3ccc(O)cc3s2)cc1` [carbon-11 labelled] the SUV was 0.325 ± 0.158 (ex vivo biodistribution; B6SJL mouse, normal, heart; intravenous, 30 min).
The body weight of `O=C(/C=C/CCc1ccc(O)cc1)/C=C/c1ccc(O)cc1` is reported as 19.4 ± 1.46 g (nude mouse MCF7 xenograft; 10 mg/kg, day 2).
`Cc1cc(NC2CCN(C(=O)OC3CCN(C(=O)/C=C/CN(C)C)C3)CC2)n2ncc(C(C)C)c2n1` (stereo not drawn): “patients with adverse event” 28% (Phase I dose escalation CTCAE v4.0, measured: Fatigue; patients with advanced solid tumours; dose not given, all dose schedules any grade).
With `CC[C@H](C)[C@@H]1NC(=O)[C@@](C)(NC(=O)[C@H](CCCNC(=N)N)NC(=O)[C@H](CC(C)C)NC(=O)[C@@H](NC(=O)[C@H](CCC(N)=O)NC(=O)[C@H](CC(C)C)NC(C)=O)[C@@H](C)O)CCCC=CCCC[C@@](C)(C(=O)N[C@@H](CC(C)C)C(=O)N[C@@H](Cc2ccc3ccccc3c2)C(N)=O)NC(=O)[C@H](CCCNC(=N)N)NC(=O)[C@H](CCC(N)=O)NC1=O` the remaining compound was 104% (LC-MS; BALB/c nude mouse, plasma; 2 µM, 0.25 h).
With `CN(C)C(=O)c1cc2cnc(Nc3ccc(N4CCNCC4)cn3)nc2n1C1CCCC1` the renal clearance was 10.6 mL/min (human, end-stage renal disease, plasma and urine; oral, 400 mg, single dose, geometric mean).
For `COc1ccc2cc(CCC[18F])ccc2c1`, the partition coefficient was 296 and 292 and 272 (n-octanol/0.1 M phosphate buffer; pH 7.4, 25 °C, per radiosynthesis batch).
`Cc1cc(-c2nccc3c2ccn3CC(=O)Nc2ccc(-c3cnccn3)cn2)ccn1`: “subjects with cardiac disorders” 25% (human; 5 mg once daily, multiple ascending dose).
`O=C(Nc1ccc(OC(F)(F)Cl)cc1)c1cnc(N2CC[C@@H](O)C2)c(-c2ccn[nH]2)c1`: “grade ≥3 event rate” 0% (per laboratory record, measured: amylase increase; human patients; oral, dose not given).
For `CC(C)[C@@H](CS(=O)(=O)C(C)C)N1C(=O)[C@@](C)(CC(=O)O)C[C@H](c2cccc(Cl)c2)[C@H]1c1ccc(Cl)cc1`, “spinal cord distribution advantage” read 59.5 (FVB mouse, Abcb1a/b knockout, spinal cord; intravenous, 20 mg/kg, unit not given; baseline: knockout Kp over wild-type Kp).
For `O=C(Nc1nc2cccc(-c3ccc(CN4CCS(=O)(=O)CC4)cc3)n2n1)C1CC1`, “treatment-emergent adverse events” read 0% (measured: body temperature increased; human rheumatoid arthritis patients; oral, 300 mg once daily, 4 weeks, regardless of relatedness).
`CNCCOC12CC3(C)CC(C)(CC(Cn4ncc(-c5ccc(N6CCc7cccc(C(=O)Nc8nc9ccccc9s8)c7C6)nc5C(=O)O)c4C)(C3)C1)C2` — result for “systemic vascular resistance change”: -9% (anaesthetised male beagle dogs; intravenous bolus, 0.03 mg/kg, 15 min; baseline: baseline).
For `c1ccc2cc3c(ccc4ccccc43)cc2c1`, “literature range of log K” read 5.43 to 6.22 log units (polyethylene-water partitioning; PAH compilation).
For `O=C(O)CCN1C(=O)CSC1=S`, the permeation rate was 1.52 ± 0.076 µmol/cm²/h (Bama miniature pig, excised skin; 10 mM, 24 h, 30% ethanol in saline donor).
Under “unbound plasma concentration”, `COc1ccc2c(c1)CN(C(=O)CCN1CCC(Cc3ccccc3)CC1)CC[S@@+]2[O-]` is recorded as 470 ± 180 nM (anaesthetised beagle dog, male, plasma; intravenous, 2 mg/kg over 30 min, end of infusion).

Excerpt of the above:
For `CC[C@H](C)[C@H](NC(=O)CN)C(=O)N[C@@H](C)C(=O)N[C@@H](CCCCN)C(=O)N[C@@H](C)C(=O)N[C@H](C(=O)N[C@@H](CCCCN)C(=O)N[C@@H](CCCCN)C(=O)N[C@H](C(=O)N[C@@H](C)C(=O)N[C@@H](CCCCN)C(=O)N[C@@H](C)C(=O)N[C@@H](CC(C)C)C(=O)NCC(N)=O)[C@@H](C)CC)[C@@H](C)CC`, the helix content was 18% (circular dichroism; 10 mM SDS; 100 µM).
With `CNc1ccc(-c2nc3ccc(O)cc3s2)cc1` [carbon-11 labelled] the SUV was 0.325 ± 0.158 (ex vivo biodistribution; B6SJL mouse, normal, heart; intravenous, 30 min).
The body weight of `O=C(/C=C/CCc1ccc(O)cc1)/C=C/c1ccc(O)cc1` is reported as 19.4 ± 1.46 g (nude mouse MCF7 xenograft; 10 mg/kg, day 2).
`Cc1cc(NC2CCN(C(=O)OC3CCN(C(=O)/C=C/CN(C)C)C3)CC2)n2ncc(C(C)C)c2n1` (stereo not drawn): “patients with adverse event” 28% (Phase I dose escalation CTCAE v4.0, measured: Fatigue; patients with advanced solid tumours; dose not given, all dose schedules any grade).
